Published values gathered from unrelated publications.
Protocols differ between the studies behind these lines. Numbers after ± are the reported error.
Route: intravenous

SMILES | system | setting | tissue uptake
CSCC[C@H](NC(=O)[C@H](CC(C)C)NC(=O)[C@H](Cc1c[nH]cn1)NC(=O)CNC(=O)[C@@H](NC(=O)[C@H](C)NC(=O)[C@H](Cc1c[nH]c2ccccc12)NC(=O)[C@H](CCC(N)=O)NC(=O)[C@H](CC(N)=O)NC(=O)CNC(=O)[C@H](Cc1ccc(O)cc1)NC(=O)[C@H](CCCNC(=N)N)NC(=O)[C@H](CCC(N)=O)NC(=O)[C@@H]1CCCN1C(=O)CN1CCN(CC(=O)O)CCN(CC(=O)O)CCN(CC(=O)O)CC1)C(C)C)C(N)=O [indium-111 labelled] | Swiss nu/nu mouse, male, PC-3 tumour xenograft, tumour | 10 pmol, 24 h | 0.7 ± 0.4 %ID/g
CSCC[C@H](NC(=O)[C@H](CC(C)C)NC(=O)[C@H](Cc1c[nH]cn1)NC(=O)CNC(=O)[C@@H](NC(=O)[C@H](C)NC(=O)[C@H](Cc1c[nH]c2ccccc12)NC(=O)[C@H](CCC(N)=O)NC(=O)CCCCCNC(=O)CNC(=O)CNC(=O)CNC(=O)CSC(C)=O)C(C)C)C(N)=O [technetium-99m labelled] | healthy Swiss mouse, large intestine, contents removed | 18.5 MBq, 5 min | 4.17 ± 0.77 %ID/g
N=C(N)NCCC[C@@H]1NC(=O)[C@H](CC(=O)NC23CNCCNCC(N)(CNCCNC2)CNCCNC3)NC(=O)[C@@H](Cc2ccccc2)NC(=O)[C@H](CC(=O)O)NC(=O)CNC1=O [copper-64 labelled] | Nu/Nu mouse, male, tumour-bearing, muscle | 10 µCi, 2 h | 0.19 ± 0.03 %ID/g
N=C(N)NCCC[C@@H]1NC(=O)[C@H](CCCCNC(=O)CC[C@H](NC(=O)CCOCCOCCOCCOCCNC(=O)CN2CCN(CC(=O)O)CCN(CC(=O)O)CCN(CC(=O)O)CC2)C(=O)NCCCC[C@@H]2NC(=O)[C@@H](Cc3ccccc3)NC(=O)[C@H](CC(=O)O)NC(=O)CNC(=O)[C@H](CCCNC(=N)N)NC2=O)NC(=O)[C@@H](Cc2ccccc2)NC(=O)[C@H](CC(=O)O)NC(=O)CNC1=O [indium-111 labelled] | athymic nude mice, female, U-87 MG glioma xenograft, U-87 MG tumour | 3 µCi, 0.5 h | 6.14 ± 1.12 %ID/g
N=C(N)NCCC[C@@H]1NC(=O)[C@H](CCCCNC(=O)CNC(=O)CNC(=O)CNC(=O)CC[C@H](NC(=O)CNC(=O)CNC(=O)CNC(=O)c2ccc(NN=Cc3ccccc3S(=O)(=O)O)nc2)C(=O)NCC(=O)NCC(=O)NCC(=O)NCCCC[C@@H]2NC(=O)[C@@H](Cc3ccccc3)NC(=O)[C@H](CC(=O)O)NC(=O)CNC(=O)[C@H](CCCNC(=N)N)NC2=O)NC(=O)[C@@H](Cc2ccccc2)NC(=O)[C@H](CC(=O)O)NC(=O)CNC1=O [technetium-99m labelled] | athymic nu/nu mouse, female, MDA-MB-435 xenograft, tumour | 2 µCi, 60 min | 7.85 ± 0.94 %ID/g
N=C(N)NCCC[C@@H]1NC(=O)[C@H](CCCCNC(=O)CCOCCOCCOCCOCCNC(=O)CC[C@H](NC(=O)CCOCCOCCOCCOCCNC(=O)CC[C@H](NC(=O)CN2CCN(CC(=O)O)CCN(CC(=O)O)CCN(CC(=O)O)CC2)C(=O)NCCOCCOCCOCCOCCC(=O)N[C@@H](CCC(=O)NCCOCCOCCOCCOCCC(=O)NCCCC[C@@H]2NC(=O)[C@@H](Cc3ccccc3)NC(=O)[C@H](CC(=O)O)NC(=O)CNC(=O)[C@H](CCCNC(=N)N)NC2=O)C(=O)NCCOCCOCCOCCOCCC(=O)NCCCC[C@@H]2NC(=O)[C@@H](Cc3ccccc3)NC(=O)[C@H](CC(=O)O)NC(=O)CNC(=O)[C@H](CCCNC(=N)N)NC2=O)C(=O)NCCOCCOCCOCCOCCC(=O)NCCCC[C@@H]2NC(=O)[C@@H](Cc3ccccc3)NC(=O)[C@H](CC(=O)O)NC(=O)CNC(=O)[C@H](CCCNC(=N)N)NC2=O)NC(=O)[C@@H](Cc2ccccc2)NC(=O)[C@H](CC(=O)O)NC(=O)CNC1=O [indium-111 labelled] | athymic nude mice, female, U-87 MG glioma xenograft, bone | 3 µCi, 24 h | 0.88 ± 0.03 %ID/g
CCCC[C@H](NC(=O)CNC(=O)CNC(=O)c1ccc(NN)nc1)C(=O)N[C@H]1CC(=O)NCCCC[C@@H](C(N)=O)NC(=O)[C@H](Cc2c[nH]c3ccccc23)NC(=O)[C@H](CCCNC(=N)N)NC(=O)[C@@H](Cc2ccccc2)NC(=O)[C@H](Cc2c[nH]cn2)NC1=O [technetium-99m labelled] | C57 mouse, B16/F1 melanoma-bearing, brain | 4 h | 0.03 ± 0.04 %ID/g
N=C(N)NCCC[C@@H]1NC(=O)[C@H](CCCCNC(=O)CC[C@H](NC(=O)CCOCCOCCOCCOCCNC(=O)CC[C@H](NC(=O)CN2CCN(CC(=O)O)CCN(CC(=O)O)CCN(CC(=O)O)CC2)C(=O)NCCOCCOCCOCCOCCC(=O)N[C@@H](CCC(=O)NCCCC[C@@H]2NC(=O)[C@@H](Cc3ccccc3)NC(=O)[C@H](CC(=O)O)NC(=O)CNC(=O)[C@H](CCCNC(=N)N)NC2=O)C(=O)NCCCC[C@@H]2NC(=O)[C@@H](Cc3ccccc3)NC(=O)[C@H](CC(=O)O)NC(=O)CNC(=O)[C@H](CCCNC(=N)N)NC2=O)C(=O)NCCCC[C@@H]2NC(=O)[C@@H](Cc3ccccc3)NC(=O)[C@H](CC(=O)O)NC(=O)CNC(=O)[C@H](CCCNC(=N)N)NC2=O)NC(=O)[C@@H](Cc2ccccc2)NC(=O)[C@H](CC(=O)O)NC(=O)CNC1=O [indium-111 labelled] | female athymic nude mice, liver | 3 µCi, 1 h, U-87 MG glioma xenograft | 2.39 %ID/g
CSCC[C@H](NC(=O)[C@H](CC(C)C)NC(=O)[C@H](Cc1c[nH]cn1)NC(=O)CNC(=O)[C@@H](NC(=O)[C@H](C)NC(=O)[C@H](Cc1c[nH]c2ccccc12)NC(=O)[C@H](CCC(N)=O)NC(=O)CCCCCCCNC(=O)CCC(=O)Nc1ccc(CNC23CNCCNCC(N)(CNCCNC2)CNCCNC3)cc1)C(C)C)C(N)=O [copper-64 labelled] | female SCID mice, PC-3 xenograft, pancreas | 0.6 MBq, 24 h | 36.9 ± 3.77 %ID/g

For quick reference, copied from above:
SMILES | system | setting | tissue uptake
CSCC[C@H](NC(=O)[C@H](CC(C)C)NC(=O)[C@H](Cc1c[nH]cn1)NC(=O)CNC(=O)[C@@H](NC(=O)[C@H](C)NC(=O)[C@H](Cc1c[nH]c2ccccc12)NC(=O)[C@H](CCC(N)=O)NC(=O)[C@H](CC(N)=O)NC(=O)CNC(=O)[C@H](Cc1ccc(O)cc1)NC(=O)[C@H](CCCNC(=N)N)NC(=O)[C@H](CCC(N)=O)NC(=O)[C@@H]1CCCN1C(=O)CN1CCN(CC(=O)O)CCN(CC(=O)O)CCN(CC(=O)O)CC1)C(C)C)C(N)=O [indium-111 labelled] | Swiss nu/nu mouse, male, PC-3 tumour xenograft, tumour | 10 pmol, 24 h | 0.7 ± 0.4 %ID/g
